Measurements from different studies.
Protocols differ between the studies behind these lines.
U2AF2: U2AF2 148-342 (Homo sapiens, UniProt P26368)
UniProt P26368, sequence (whole entry, looked up): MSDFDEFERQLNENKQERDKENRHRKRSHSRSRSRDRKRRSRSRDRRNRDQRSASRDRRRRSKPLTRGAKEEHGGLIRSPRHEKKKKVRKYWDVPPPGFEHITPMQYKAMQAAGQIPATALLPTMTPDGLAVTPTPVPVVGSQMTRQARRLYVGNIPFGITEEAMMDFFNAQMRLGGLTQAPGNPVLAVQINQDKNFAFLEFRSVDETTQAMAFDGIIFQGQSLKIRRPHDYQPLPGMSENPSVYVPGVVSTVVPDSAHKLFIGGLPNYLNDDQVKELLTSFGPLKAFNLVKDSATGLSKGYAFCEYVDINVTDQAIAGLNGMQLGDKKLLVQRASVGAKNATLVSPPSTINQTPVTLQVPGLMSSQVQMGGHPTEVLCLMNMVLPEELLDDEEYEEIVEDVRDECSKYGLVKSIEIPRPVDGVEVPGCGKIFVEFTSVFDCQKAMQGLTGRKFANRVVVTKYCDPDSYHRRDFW
B1: IL2 mature E63A (Bos taurus, UniProt P05016); sequence looked up; chain APTSSSTGNTMKEVKSLLLDLQLLLEKVKNPENLKLSRMHTFDFYVPKVNATELKHLKCLLEALKLLEEVLNLAPSKNLNPREIKDSMDNIKRIVLELQGSETRFTCEYDDATVNAVEFLNKWITFCQSIYSTMT
B2: SPOP R221C (Homo sapiens, UniProt O43791); sequence looked up; chain MSRVPSPPPPAEMSSGPVAESWCYTQIKVVKFSYMWTINNFSFCREEMGEVIKSSTFSSGANDKLKWCLRVNPKGLDEESKDYLSLYLLLVSCPKSEVRAKFKFSILNAKGEETKAMESQRAYRFVQGKDWGFKKFIRRDFLLDEANGLLPDDKLTLFCEVSVVQDSVNISGQNTMNMVKVPECRLADELGGLWENSRFTDCCLCVAGQEFQAHKAILAACSPVFSAMFEHEMEESKKNRVEINDVEPEVFKEMMCFIYTGKAPNLDKMADDLLAAADKYALERLKVMCEDALCSNLSVENAAEILILADLHSADQLKTQAVDFINYHASDVLETSGWKSMVVSHPHLVAEAYRSLASAQCPFLGPPRKRLKQS
B3: Transcriptional regulator (NtrC family) 365-442 (Aquifex aeolicus, UniProt O66551); sequence looked up; chain EVIKPEDLGLKEKSWRDLSYLLKIKELKEAKKEFEKIFIEEKLREYDYDLKRTAEEIGIDLSNLYRKIKSLNIRVKSS
B4: tas3 (Schizosaccharomyces pombe, UniProt O94687); sequence looked up; chain MEKGIKKYLPSLPFLACISDFPENHGTSRRSATVSLERVHELFTEHWLSNLKNRREKRQELAEEAVYCRSEMLSQRKLLAAVDFPQQLKNSPAKAKATHTSSGVTKEVRASKKYTSSNVEFPLVTDGKEKPVKSKQLRKNSVTEFEKPIETKKSKHRKSRNKFLDKSSGSMEIESWDNSTSDSIIESSSRLHESISLRENDIRSSDSKSVGWDDNSTGFRESSKSLDHTDTSMFMELDSNSDPQFRPKYQAKSSWFAPDDPEASWGNLDDGWGETNGSWSSTDDTKHYKNEWAESINLDNFNRPSQQEDYDKPKNTQVSRSSNHHRRYDSYHPDSRSDSYRSKREHYDNRDTGPRSKHLEKSSYVYNQNFEDRTHLSDHGAHFHLGNANDFNMQGSSRKRKASDRQRESRENELPTKKLNASDSHNPLASLTTDKNDLYINWLKSLSFFQTNSSCAEALVKVIPHYHNKLIDFSQVLQLVFSASEKFPIQENQPLPEQLMFLSNLEKQTPFAKAVGSSIYKLVTGKNLSLDFASQILKEASILEHKNEK
B5: ABCC2 203-1623 (Arabidopsis thaliana, UniProt Q42093); sequence looked up; chain YMPVRSETVDDYEYEEISDGQQICPEKHANIFDKIFFSWMNPLMTLGSKRPLTEKDVWYLDTWDQTETLFTSFQHSWDKELQKPQPWLLRALNNSLGGRFWWGGFWKIGNDCSQFVGPLLLNQLLKSMQEDAPAWMGYIYAFSIFVGVVFGVLCEAQYFQNVMRVGYRLRSALIAAVFRKSLRLTNEGRRKFQTGKITNLMTTDAESLQQICQSLHTMWSAPFRIIIALILLYQQLGVASLIGALLLVLMFPLQTVIISKMQKLTKEGLQRTDKRIGLMNEVLAAMDTVKCYAWENSFQSKVQTVRDDELSWFRKSQLLGALNMFILNSIPVLVTIVSFGVFTLLGGDLTPARAFTSLSLFAVLRFPLFMLPNIITQVVNANVSLKRLEEVLATEERILLPNPPIEPGEPAISIRNGYFSWDSKGDRPTLSNINLDVPLGSLVAVVGSTGEGKTSLISAILGELPATSDAIVTLRGSVAYVPQVSWIFNATVRDNILFGSPFDREKYERAIDVTSLKHDLELLPGGDLTEIGERGVNISGGQKQRVSMARAVYSNSDVYIFDDPLSALDAHVGQQVFEKCIKRELGQKTRVLVTNQLHFLSQVDRIVLVHEGTVKEEGTYEELSSNGPLFQRLMENAGKVEEYSEENGEAEADQTAEQPVANGNTNGLQMDGSDDKKSKEGNKKGGKSVLIKQEERETGVVSWRVLKRYQDALGGAWVVMMLLLCYVLTEVFRVTSSTWLSEWTDAGTPKSHGPLFYNLIYALLSFGQVLVTLTNSYWLIMSSLYAAKKLHDNMLHSILRAPMSFFHTNPLGRIINRFAKDLGDIDRTVAVFVNMFMGQVSQLLSTVVLIGIVSTLSLWAIMPLLVLFYGAYLYYQNTAREVKRMDSISRSPVYAQFGEALNGLSTIRAYKAYDRMADINGRSMDNNIRFTLVNMGANRWLGIRLETLGGLMIWLTASFAVMQNGRAENQQAFASTMGLLLSYALNITSLLTGVLRLASLAENSLNAVERVGNYIEIPPEAPPVIENNRPPPGWPSSGSIKFEDVVLRYRPQLPPVLHGVSFFIHPTDKVGIVGRTGAGKSSLLNALFRIVEVEKGRILIDDCDVGKFGLMDLRKVLGIIPQSPVLFSGTVRFNLDPFGEHNDADLWESLERAHLKDTIRRNPLGLDAEVSEAGENFSVGQRQLLSLSRALLRRSKILVLDEATAAVDVRTDALIQKTIREEFKSCTMLIIAHRLNTIIDCDKILVLDSGRVQEFSSPENLLSNEGSSFSKMVQSTGAANAEYLRSLVLDNKRAKDDSHHLQGQRKWLASSRWAAAAQFALAASLTSSHNDLQSLEIEDDSSILKRTNDAVVTLRSVLEGKHDKEIAESLEEHNISREGWLSSLYRMVEGLAVMSRLARNRMQQPDYNFEGNTFDWDNVEM
B6: ncd residues 293-700 Y485K (x, UniProt P20480); chain MGSMHAALSTEVVHLRQRTEELLRCNEQQAAELETCKEQLFQSNMERKELHNTVMDLRGNIRVFCRIRPPLESEENRMCCTWTYHDESTVELQSIDAQAKSKMGQQIFSFDQVFHPLSSQSDIFEMVSPLIQSALDGYNICIFAYGQTGSGKTYTMDGVPESVGVIPRTVDLLFDSIRGYRNLGWEYEIKATFLEIKNEVLYDLLSNEQKDMEIRMAKNNKNDIYVSNITEETVLDPNHLRHLMHTAKMNRATASTAGNERSSRSHAVTKLELIGRHAEKQEISVGSINLVDLAGSESPKTSTRMTETKNINRSLSELTNVILALLQKQDHIPYRNSKLTHLLMPSLGGNSKTLMFINVSPFQDCFQESVKSLRFAASVNSCKMTKAKRNRYLNNSVANSSTQSNNSGSFDK
B7: Gm4951 F194A (Mus musculus, UniProt Q3UED7); sequence looked up; chain MGQLFSSRRSEDQDLSSSFIEYLKECEKGINIIPHEIITSIEINMKKGNIQEVNSTVRDMLREIDNTPLNVALTGETGSGKSSFINTLRGIGHEEGGAAHTGVTDKTKERHPYEHPKMPNVVFWDLPGTGSEDFQPKTYLEKMKFYEYDFFIIISATRFKKNDIDLAKAIGIMKKEFYFVRTQVDSDLRNEEDAKPQTFDREKVLQDIRLNCVNTFRENGIAEPPIFLISNKNVCHYDFPVLMDKLISDLPVFKRQNFMFSLPNITDSVIEKKRNFLRWKTWLEGFADGLLSFFLESDLETLEKSMKFYRTVFGVDDASLQRLARAWEIDQVDQVRAMIKSPAVFTPTDEETIQERLSRYNQEFCLANGYLLPKNHCREILYLKLYFLDMVTEDAKTLLKEICLRN
B8: NEMO 44-113 (Homo sapiens); chain GSWEQGAPETLQRCLEENQELRDAIRQSNQILRERCEELLHFQASQREEKEFLMCKFQEARKLVERLGLEKLD
B9: dlg1 1-97 R39A (Drosophila melanogaster, UniProt P31007); sequence looked up; chain MPVKKQEAHRALELLEDYHARLSEPQDRALRIAIERVIAIFKSRLFQALLDIQEFYELTLLDDSKSIQQKTAETLQIATKWEKDGQAVKIADFIKSS
UniProt Q00535, sequence (whole entry, looked up): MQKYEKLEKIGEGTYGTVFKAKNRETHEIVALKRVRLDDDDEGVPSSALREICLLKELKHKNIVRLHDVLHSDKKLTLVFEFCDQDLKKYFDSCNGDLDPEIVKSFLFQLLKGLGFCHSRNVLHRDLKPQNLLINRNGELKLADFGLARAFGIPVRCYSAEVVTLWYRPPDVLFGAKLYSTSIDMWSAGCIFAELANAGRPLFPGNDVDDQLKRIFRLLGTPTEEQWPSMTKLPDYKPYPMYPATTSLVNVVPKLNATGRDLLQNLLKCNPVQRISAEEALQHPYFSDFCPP

Substance	tested on	test	system	conditions	how to read	quantity	value
KEAFWDRCLSVINLMSSKMLQIEA	Cyclin-dependent kinase 5, with p25 (CDK5, Homo sapiens, UniProt Q00535)	phosphotransferase activity, radiometric	peptide	concentration not given, 10% DMSO, added: histone substrate	relative to: p5-WT peptide	activity change	63%
AAGCUUUUG (ssRNA)	U2AF2	sequencing of bound RNA	RNA	motif only		Kd	6.08 µM
B1 (IL2 mature E63A)	itself	SDS-PAGE				binding	binds
B2 (SPOP R221C)	itself	negative-stain TEM				binding	binds
B3 (Transcriptional regulator)	itself	X-ray crystallography				binding	binds
B4 (tas3)	itself	cross-linking				binding	binds
B5 (ABCC2 203-1623)	itself	mass photometry				binding	binds
B6 (ncd residues 293-700 Y485K)	itself	cryo-EM				binding	binds
GYSSYGQSQSGYSQS (TAF15 52-66 (Homo sapiens, UniProt Q92804); N-acetyl/C-amide; sequence looked up)	itself	negative-stain TEM	peptide	peptide		binding	binds
B7 (Gm4951 F194A)	itself	mass photometry				binding	binds
B8 (NEMO 44-113)	itself	SEC-MALS				binding	binds
UAUUUUCCC (ssRNA)	U2AF2	sequencing of bound RNA	RNA	motif only		Kd	1.77 µM
B9 (dlg1 1-97 R39A)	itself	SEC				binding	binds

For quick reference, copied from above:
Substance	tested on	test	system	conditions	how to read	quantity	value
GYSSYGQSQSGYSQS (TAF15 52-66 (Homo sapiens, UniProt Q92804); N-acetyl/C-amide; sequence looked up)	itself	negative-stain TEM	peptide	peptide		binding	binds
